Assay results collected from several papers.
Numbers after ± are the reported error.
ACHE: Acetylcholinesterase (ACHE, Homo sapiens, UniProt P22303)
cas9: CRISPR-associated endonuclease Cas9/Csn1 (cas9, Streptococcus pyogenes serotype M1, UniProt Q99ZW2)

| SMILES | target | test | system | setting | IC50 [µM] |
| --- | --- | --- | --- | --- | --- |
| COc1ccccc1C1c2ccc(O)cc2Oc2nc3c(c(N)c21)CCCC3 (stereo not drawn) | ACHE | enzyme activity, inhibitor | – | – | 5.88 |
| CCCCCCCCCCCCCCCCC(C(=O)O)C(O)(CC(=O)O)C(=O)O (stereo not drawn) | cas9 | circular plasmid substrate | Streptococcus pyogenes | – | ~50 |
| CO/N=C1\C[C@]2(C[C@@H]3C[C@@H](C/C=C(\C)C[C@@H](C)/C=C/C=C4\CO[C@@H]5[C@H](O)C(C)=C[C@@H](C(=O)O3)[C@]45O)O2)O[C@H](/C(C)=C/C(C)C)[C@H]1C | Bile acid receptor (NR1H4, Homo sapiens, UniProt Q96RI1) | receptor activity, inhibitor | – | – | 13.9 ± 0.92 |
| COc1cc(Nc2ncc(F)c(Nc3ccc4c(n3)NC(=O)C(C)(C)O4)n2)cc(OC)c1OC | Tryptase | – | – | – | > 10 |
| CNC(=O)Oc1cccc2c1OC(C)(C)C2 | Acetylcholinesterase (Rhipicephalus microplus, UniProt O45210, W384F) | – | – | – | 0.006 |
| CCN1CCN(Cc2ccc(Nc3nc4cc(Oc5ccnc(NC(C)=O)c5)ccc4n3C)cc2C(F)(F)F)CC1 | Protein kinase 6 (Plasmodium falciparum, UniProt Q8IDW1) | enzyme activity, inhibitor | – | – | 29.8 ± 0.4 |
| C[C@H]1CN(c2n[nH]c3nc(N[C@H]4CC[C@H](NS(=O)(=O)CCC(F)(F)F)CC4)ncc23)CCO1 | Insulin-like growth factor 1 receptor (IGF1R, Homo sapiens, UniProt P08069) | biochemical | – | – | ≥ 20 |
| CC1(C)[C@@H](O[C@H]2O[C@H](C(=O)O)[C@@H](O)[C@H](O)[C@H]2O[C@@H]2O[C@H](C(=O)O)[C@@H](O)[C@H](O)[C@H]2O)CC[C@]2(C)[C@H]3C(=O)C=C4[C@@H]5C[C@@](C)(C(=O)O)CC[C@]5(C)CC[C@@]4(C)[C@]3(C)CC[C@@H]12 | cas9 | linear substrate | Streptococcus pyogenes | – | 50 to 100 |
| CCC(C(=O)Nc1cc(NC2COC2)ccc1C)n1cc(Br)cc2nc(SCc3ccc(F)cc3)nc1-2 (stereo not drawn) | Calpain-1 catalytic subunit (CAPN1, Homo sapiens, UniProt P07384) | enzyme activity | – | – | > 100 |
| Nc1c2c(nc3c1C(c1cccc(Br)c1)c1ccc(OCC(=O)c4ccc(Cl)cc4)cc1O3)CCCC2 (stereo not drawn) | ACHE | enzyme activity, inhibitor | – | – | 0.994 |
| CC[C@H](C)[C@H](NC(=O)[C@@H](NC(=O)[C@H](Cc1c[nH]c2ccccc12)NC(=O)[C@H](CC(=O)O)NC(=O)[C@@H](NC(=O)[C@H](CCCNC(=N)N)NC(=O)[C@@H](N)CCCCN)C(C)C)[C@@H](C)O)C(=O)N[C@@H](CCC(=O)O)C(=O)N[C@@H](Cc1ccc(O)cc1)C(=O)O | HLA class I histocompatibility antigen, B alpha chain (Homo sapiens, UniProt P01889) | peptide-MHC binding, radioligand competition binding | – | – | > 70 |
| CN(C)CCC=C1c2ccccc2CCc2ccccc21 | Neuronal acetylcholine receptor; alpha9/alpha10 (Homo sapiens, UniProt Q9GZZ6+Q9UGM1) | inhibitor | – | – | 0.49 ± 0.13 |
| C=CC(=O)OCCCC | uncharacterized protein (Bradysia odoriphaga, UniProt A0A2S0X9G4) | binding, competitive fluorescence displacement | – | pH 7.4 | > 50 |
| O=c1c2cc(Cl)c(CO)cc2[nH]c(=S)n1Cc1cccnc1 | Potassium voltage-gated channel subfamily KQT member 1, with KCNE1 (KCNQ1, Homo sapiens, UniProt P51787) | KCNQ1/minK current, inhibitor, manual patch clamp | CHO cells | – | 1.6 |
| C/C=C/C/C=C/CCC(=O)[C@H]1O[C@H]1C(N)=O | fabF (Escherichia coli, UniProt P0AAI5) | acyl chain flipping, inhibitor, solvatochromic fluorescence | – | – | 9.87 |

Excerpt of the above:
| SMILES | target | test | system | setting | IC50 [µM] |
| --- | --- | --- | --- | --- | --- |
| CO/N=C1\C[C@]2(C[C@@H]3C[C@@H](C/C=C(\C)C[C@@H](C)/C=C/C=C4\CO[C@@H]5[C@H](O)C(C)=C[C@@H](C(=O)O3)[C@]45O)O2)O[C@H](/C(C)=C/C(C)C)[C@H]1C | Bile acid receptor (NR1H4, Homo sapiens, UniProt Q96RI1) | receptor activity, inhibitor | – | – | 13.9 ± 0.92 |
| COc1cc(Nc2ncc(F)c(Nc3ccc4c(n3)NC(=O)C(C)(C)O4)n2)cc(OC)c1OC | Tryptase | – | – | – | > 10 |
